Results pooled from the literature.
Values joined by “and” are separate records of one study, mostly repeats; a detail may differ. ± marks the error that the study gave.
MT-CYB/UQCRFS1: MT-CYB/UQCRFS1 (Homo sapiens, UniProt P00156+P47985)
Sequence of UniProt P47985 (whole entry, looked up): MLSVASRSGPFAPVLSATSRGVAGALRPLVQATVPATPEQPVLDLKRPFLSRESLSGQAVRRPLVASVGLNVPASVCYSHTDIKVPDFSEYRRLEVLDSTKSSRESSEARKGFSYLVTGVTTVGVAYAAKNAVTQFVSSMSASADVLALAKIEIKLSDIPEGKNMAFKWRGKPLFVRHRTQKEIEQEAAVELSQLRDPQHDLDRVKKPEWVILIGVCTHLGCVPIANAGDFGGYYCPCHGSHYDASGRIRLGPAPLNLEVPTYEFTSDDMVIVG
Sequence of UniProt P00156 (whole entry, looked up): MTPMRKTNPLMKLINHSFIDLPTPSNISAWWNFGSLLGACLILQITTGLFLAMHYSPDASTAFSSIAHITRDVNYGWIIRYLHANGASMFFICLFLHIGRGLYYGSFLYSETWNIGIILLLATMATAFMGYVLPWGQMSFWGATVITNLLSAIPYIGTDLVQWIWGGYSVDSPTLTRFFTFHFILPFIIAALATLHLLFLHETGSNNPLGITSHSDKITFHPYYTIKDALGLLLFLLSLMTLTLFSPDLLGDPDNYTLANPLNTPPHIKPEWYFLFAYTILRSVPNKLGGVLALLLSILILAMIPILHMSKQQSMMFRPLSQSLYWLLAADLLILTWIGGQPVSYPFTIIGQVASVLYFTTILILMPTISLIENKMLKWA
T1: preQ1-III riboswitch A84G (Faecalibacterium prausnitzii); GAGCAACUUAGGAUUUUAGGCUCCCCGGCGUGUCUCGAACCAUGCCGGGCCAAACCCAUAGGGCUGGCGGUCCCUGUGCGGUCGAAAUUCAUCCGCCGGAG
Sequence of UniProt P61619 (whole entry, looked up): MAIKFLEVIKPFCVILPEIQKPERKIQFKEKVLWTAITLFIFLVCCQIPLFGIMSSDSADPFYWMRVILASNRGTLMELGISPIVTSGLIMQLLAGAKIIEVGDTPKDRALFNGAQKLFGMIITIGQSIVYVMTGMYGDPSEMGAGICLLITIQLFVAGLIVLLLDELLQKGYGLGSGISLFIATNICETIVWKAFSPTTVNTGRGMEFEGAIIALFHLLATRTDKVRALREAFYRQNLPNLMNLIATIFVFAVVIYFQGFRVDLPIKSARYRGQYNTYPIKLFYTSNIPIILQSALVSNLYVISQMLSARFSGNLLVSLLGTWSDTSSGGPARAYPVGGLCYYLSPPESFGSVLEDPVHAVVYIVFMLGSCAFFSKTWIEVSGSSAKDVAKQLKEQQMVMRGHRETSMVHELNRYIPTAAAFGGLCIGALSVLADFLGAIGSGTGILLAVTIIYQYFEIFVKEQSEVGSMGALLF
Sequence of UniProt O76090 (whole entry, unmodified, looked up): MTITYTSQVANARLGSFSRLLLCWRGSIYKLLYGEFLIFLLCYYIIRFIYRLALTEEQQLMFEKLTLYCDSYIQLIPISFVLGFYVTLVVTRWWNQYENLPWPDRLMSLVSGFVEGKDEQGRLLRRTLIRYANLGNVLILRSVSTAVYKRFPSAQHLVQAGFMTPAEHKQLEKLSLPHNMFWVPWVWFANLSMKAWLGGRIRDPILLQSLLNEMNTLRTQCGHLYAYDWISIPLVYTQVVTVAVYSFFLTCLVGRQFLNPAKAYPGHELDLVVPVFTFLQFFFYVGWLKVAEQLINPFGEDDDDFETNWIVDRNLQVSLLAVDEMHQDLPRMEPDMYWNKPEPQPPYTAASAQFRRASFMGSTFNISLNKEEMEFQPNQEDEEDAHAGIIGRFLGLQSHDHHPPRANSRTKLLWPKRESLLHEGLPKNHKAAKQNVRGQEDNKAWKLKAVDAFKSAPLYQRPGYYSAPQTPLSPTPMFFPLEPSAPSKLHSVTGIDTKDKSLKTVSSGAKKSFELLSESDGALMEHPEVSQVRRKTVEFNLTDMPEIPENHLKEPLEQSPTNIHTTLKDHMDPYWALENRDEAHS
Sequence of UniProt P11388 (whole entry, looked up): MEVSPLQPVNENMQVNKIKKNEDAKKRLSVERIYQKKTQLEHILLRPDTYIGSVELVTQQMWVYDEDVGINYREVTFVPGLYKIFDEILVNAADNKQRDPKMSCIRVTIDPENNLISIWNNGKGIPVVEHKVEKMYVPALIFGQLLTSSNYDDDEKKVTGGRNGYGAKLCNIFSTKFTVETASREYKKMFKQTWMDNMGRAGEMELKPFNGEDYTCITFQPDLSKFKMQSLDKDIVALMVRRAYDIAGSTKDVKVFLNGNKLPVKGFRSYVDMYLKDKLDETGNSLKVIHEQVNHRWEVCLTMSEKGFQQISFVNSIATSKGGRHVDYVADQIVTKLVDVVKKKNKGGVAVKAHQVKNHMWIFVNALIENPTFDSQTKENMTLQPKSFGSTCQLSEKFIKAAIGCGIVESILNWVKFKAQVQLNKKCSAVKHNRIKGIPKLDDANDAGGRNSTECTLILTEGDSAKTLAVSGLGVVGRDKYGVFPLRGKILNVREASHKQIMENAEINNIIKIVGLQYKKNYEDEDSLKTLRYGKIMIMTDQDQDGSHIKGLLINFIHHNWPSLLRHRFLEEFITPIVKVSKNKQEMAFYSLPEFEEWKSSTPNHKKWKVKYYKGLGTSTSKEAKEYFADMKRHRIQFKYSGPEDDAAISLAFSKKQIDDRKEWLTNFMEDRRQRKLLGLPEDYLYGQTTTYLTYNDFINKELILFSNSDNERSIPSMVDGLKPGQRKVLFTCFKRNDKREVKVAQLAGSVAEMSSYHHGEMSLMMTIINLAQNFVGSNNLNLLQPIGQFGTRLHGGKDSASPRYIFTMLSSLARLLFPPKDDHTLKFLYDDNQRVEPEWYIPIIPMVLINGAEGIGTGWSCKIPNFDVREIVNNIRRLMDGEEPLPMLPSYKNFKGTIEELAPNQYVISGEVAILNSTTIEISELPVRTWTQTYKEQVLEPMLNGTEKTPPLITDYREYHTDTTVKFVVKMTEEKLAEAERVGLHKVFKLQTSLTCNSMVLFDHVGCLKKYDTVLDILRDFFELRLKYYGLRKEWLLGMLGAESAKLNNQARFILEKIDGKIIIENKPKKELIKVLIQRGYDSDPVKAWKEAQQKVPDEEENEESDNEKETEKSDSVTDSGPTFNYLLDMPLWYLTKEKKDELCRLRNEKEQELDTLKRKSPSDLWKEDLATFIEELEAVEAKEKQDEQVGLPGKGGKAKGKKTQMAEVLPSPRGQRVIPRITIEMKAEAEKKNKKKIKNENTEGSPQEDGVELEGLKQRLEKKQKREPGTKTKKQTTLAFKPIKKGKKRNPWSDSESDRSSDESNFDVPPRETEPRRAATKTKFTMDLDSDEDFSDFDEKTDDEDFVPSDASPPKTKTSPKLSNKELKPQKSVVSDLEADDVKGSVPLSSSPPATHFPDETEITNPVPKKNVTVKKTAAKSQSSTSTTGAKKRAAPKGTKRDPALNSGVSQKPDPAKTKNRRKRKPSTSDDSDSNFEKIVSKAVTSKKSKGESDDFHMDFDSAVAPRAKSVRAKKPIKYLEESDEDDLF
Sequence of UniProt Q16774 (whole entry, unmodified, looked up): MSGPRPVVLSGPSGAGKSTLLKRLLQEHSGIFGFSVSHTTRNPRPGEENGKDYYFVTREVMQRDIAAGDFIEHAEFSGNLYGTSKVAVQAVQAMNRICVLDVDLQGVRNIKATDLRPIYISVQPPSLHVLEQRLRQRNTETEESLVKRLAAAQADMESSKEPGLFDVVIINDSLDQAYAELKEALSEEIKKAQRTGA
Sequence of UniProt Q86Y07 (whole entry, looked up): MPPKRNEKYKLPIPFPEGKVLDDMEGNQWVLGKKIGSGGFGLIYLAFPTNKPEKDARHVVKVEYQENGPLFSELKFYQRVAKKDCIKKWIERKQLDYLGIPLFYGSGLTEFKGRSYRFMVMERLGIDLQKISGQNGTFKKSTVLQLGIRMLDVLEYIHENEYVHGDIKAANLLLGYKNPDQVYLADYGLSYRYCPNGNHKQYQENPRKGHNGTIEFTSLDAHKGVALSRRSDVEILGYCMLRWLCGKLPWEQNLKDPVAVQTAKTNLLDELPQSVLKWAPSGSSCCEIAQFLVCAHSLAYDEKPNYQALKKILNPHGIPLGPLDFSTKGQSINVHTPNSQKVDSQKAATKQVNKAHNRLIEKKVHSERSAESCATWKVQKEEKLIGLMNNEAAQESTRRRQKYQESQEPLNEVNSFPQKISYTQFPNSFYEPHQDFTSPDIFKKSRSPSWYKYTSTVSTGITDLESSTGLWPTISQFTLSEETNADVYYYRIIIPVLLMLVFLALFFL
Sequence of UniProt Q14145 (whole entry, looked up): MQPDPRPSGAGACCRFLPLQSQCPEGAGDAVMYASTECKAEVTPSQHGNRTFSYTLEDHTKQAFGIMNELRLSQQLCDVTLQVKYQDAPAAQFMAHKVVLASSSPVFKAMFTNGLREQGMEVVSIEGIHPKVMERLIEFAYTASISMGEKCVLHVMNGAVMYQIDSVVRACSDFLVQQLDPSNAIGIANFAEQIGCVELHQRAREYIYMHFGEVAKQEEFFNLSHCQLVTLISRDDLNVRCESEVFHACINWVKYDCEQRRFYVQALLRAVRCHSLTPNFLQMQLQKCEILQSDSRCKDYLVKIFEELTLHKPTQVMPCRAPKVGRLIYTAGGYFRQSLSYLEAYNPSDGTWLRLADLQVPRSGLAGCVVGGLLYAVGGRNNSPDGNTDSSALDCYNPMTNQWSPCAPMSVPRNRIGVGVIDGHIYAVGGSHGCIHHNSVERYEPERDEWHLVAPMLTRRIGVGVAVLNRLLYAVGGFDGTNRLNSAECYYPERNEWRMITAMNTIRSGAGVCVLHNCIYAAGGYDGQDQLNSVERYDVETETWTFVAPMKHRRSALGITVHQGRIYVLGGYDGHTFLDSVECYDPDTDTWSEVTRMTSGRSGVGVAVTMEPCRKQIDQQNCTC
Sequence of UniProt P04406 (whole entry, looked up): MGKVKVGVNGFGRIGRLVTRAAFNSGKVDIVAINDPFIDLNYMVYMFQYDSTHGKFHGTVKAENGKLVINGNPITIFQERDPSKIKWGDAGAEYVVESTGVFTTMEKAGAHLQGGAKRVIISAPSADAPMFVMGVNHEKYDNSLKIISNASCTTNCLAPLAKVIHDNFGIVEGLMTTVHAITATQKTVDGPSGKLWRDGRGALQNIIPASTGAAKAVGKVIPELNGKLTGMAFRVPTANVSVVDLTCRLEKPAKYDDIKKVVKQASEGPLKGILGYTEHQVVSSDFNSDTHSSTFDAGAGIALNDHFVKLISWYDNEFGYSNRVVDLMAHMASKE

SMILES	target or system	test	system	conditions	how to read	endpoint	value
NCCS(=O)(=O)O	SLC6A6 (Homo sapiens, UniProt P31641, S402A)	binding, microscale thermophoresis		500 µM, room temperature, added: 50 nM labelled protein	higher = more binding	normalised MST signal	0.0294
CC[C@H](CO)N(CCN(N=O)[C@H](CC)CO)N=O	Salmonella typhimurium	mutagenicity, Ames plate incorporation	TA1535	500 µg/plate, without S9, methanol		revertant colonies per plate	20.3 ± 6
CC(C)C[C@H](NC(=O)C[C@H](O)[C@H](CC(C)C)NC(=O)[C@H](Cc1c[nH]cn1)NC(=O)CNC(=O)[C@@H](NC(=O)[C@H](C)NC(=O)[C@H](Cc1c[nH]c2ccccc12)NC(=O)[C@H](CCC(N)=O)NC(=O)[C@@H](Cc1ccccc1)NC(=O)COCCOCCNC(=O)CCC(C(=O)O)N1CCN(CC(=O)O)CCN(CC(=O)O)CC1)C(C)C)C(N)=O (stereo partly drawn) [lutetium-177 labelled]			female BALB/c nu/nu mice, liver	intravenous, 50 pmol, 1 h		tissue uptake	2.1 ± 0.5 %ID/g
C=CC(=O)Nc1ccccc1CN(C(=O)Nc1cccc(C(F)(F)F)c1)C1CCN(C(C)CCC)CC1 (stereo not drawn)	DCN1-like protein 1 (Homo sapiens, UniProt Q96GG9)	covalent binder, LC-TOF mass spectrometry		60 µM, overnight, 4 °C, added: DCN1-like protein 1 30 µM		covalent adduct formation	100%
NC(=O)NOCCCCCCCCCCCCCCCCCCCC[P+](c1ccccc1)(c1ccccc1)c1ccccc1.O=C([O-])C(F)(F)F	MT-CYB/UQCRFS1	complex III-dependent respiration, Seahorse XF96	HCT-116	3 µM, 24 h	relative to: control	oxygen consumption rate	60.3%
Nc1ncnc2c1ncn2[C@@H]1O[C@H](CO)[C@@H](O)[C@@H]1O	THP-1	pyroptotic LDH release		2 µM, 40 min, added: LPS then nigericin		inhibition	-14.6%
COc1cc2c(c(O)c1OC)C(=O)c1c(cc(C)c(O)c1OC)C2=O	HK-2 co-cultured with HepaRG	MTT		66.67 µM, 24 h	relative to: untreated control	cell viability	47.6 ± 8.83%
NCc1c[nH]c2nc(N)[nH]c(=O)c12	T1, preQ1-III riboswitch A84G (Faecalibacterium prausnitzii)	ITC		NaCl 100 mM, apparent, single-site fit		Kd	27.4 nM
NC(=O)NOCCCCCCCCCC[P+](c1ccccc1)(c1ccccc1)c1ccccc1.O=C([O-])C(F)(F)F	MT-CYB/UQCRFS1	complex III-dependent respiration, Seahorse XF96	HCT-116	5 µM, 24 h	relative to: control	oxygen consumption rate	100 ± 5.65%
O=CNc1ccccc1C=O	Dehaloperoxidase B, ferric (Amphitrite ornata, UniProt Q9NAV7)	product, HPLC		5 min, pH 7, 25 °C, enzyme 10 µM, added: indole and H2O2 500 µM each		product formed	2.45 M
CC1=C(/C=C/C(C)=C/C=C/C(C)=C/C=O)C(C)(C)CCC1	Rhodopsin (RHO, Bos taurus, UniProt P02699, I189V)	retinal release, Trp FRET	lipid bicelles	28 °C, I189V mutant	relative to: wild-type rhodopsin	relative koff	1.56 ± 0.02
COc1cc(O)ccc1C1CC(=O)Nc2c1c(=O)nc(SCc1ccccc1Cl)n2C (stereo not drawn)	Protein lin-28 homolog A (Mus musculus, UniProt Q8K3Y3)					Hill slope	-2.1
CC(C)(O)c1ccccc1CC[C@@H](SCC1(CC(=O)O)CC1)c1cccc(/C=C/c2ccc3ccc(Cl)cc3n2)c1	Cysteinyl leukotriene receptor 1 (Mus musculus, UniProt Q99JA4)		female MC-Cysltr2 knockout mice	intraperitoneal, 30 mg/kg		BAL fluid eosinophils	decreased
COc1c(O[C@@H]2O[C@H](CO)[C@@H](O)[C@H](O)[C@H]2O)cc2c(c1O)C(=O)c1c(cc(C)c(O)c1OC)C2=O	HK-2 co-cultured with HepaRG	MTT		16.67 µM, 24 h	relative to: untreated control	cell viability	91.2 ± 15.1%
c1coc(CNc2ncnc3nc[nH]c23)c1	Gelsolin, peptide (GSN, Homo sapiens, UniProt P06396)	amyloid aggregation, ThT fluorescence		100 µM, 12 h, 37 °C, inhibitor to peptide 1:1 molar	relative to: untreated	remaining fluorescence	48%
NC(=O)NOCCCCCCCCCCCCCC[P+](c1ccccc1)(c1ccccc1)c1ccccc1.O=C([O-])C(F)(F)F	MT-CYB/UQCRFS1	complex III-dependent respiration, Seahorse XF96	HCT-116	0.75 µM, 24 h	relative to: control	oxygen consumption rate	72.8 ± 3.66%
C=CC(=O)N1CCC(COCC(=O)N2CCN(c3nc(-c4cnc(N)nc4C(F)F)nc(N4CCOC[C@@H]4C)n3)CC2)CC1	CDK15 (Homo sapiens, UniProt Q96Q40)	KINOMEscan		1 µM		remaining binding	95%

SMILES	target or system	test	system	conditions	how to read	endpoint	value
C[C@@](Cc1ccc(O)c(O)c1)(NN)C(=O)O	THP-1	pyroptotic LDH release		2 µM, 40 min, added: LPS then nigericin		inhibition	31.9%
NC(=O)NOCCCCCCCCCCCCCCCC[P+](c1ccccc1)(c1ccccc1)c1ccccc1.O=C([O-])C(F)(F)F	MT-CYB/UQCRFS1	complex III-dependent respiration, Seahorse XF96	HCT-116	0.4 µM, 24 h	relative to: control	oxygen consumption rate	81.4%
Nc1nc2c(ncn2[C@@H]2O[C@H](COP(=O)(O)O)[C@@H](O)[C@H]2O)c(=O)[nH]1	GUK1 (Homo sapiens, UniProt Q16774, R148A)	binding, ITC				ΔG	-5.71 kcal/mol
CCN(CCO)CCCC(C)Nc1ccnc2cc(Cl)ccc12 (stereo not drawn)	Protein transport protein Sec61 subunit alpha isoform 1 (Homo sapiens, UniProt P61619)	reporter gene, inhibitor, dual luciferase	HEK293 with SP-CD4-FLuc reporter	concentration not given		FLuc/RLuc ratio	6.16 and 5.34 and 5.42 and 6.6
O=c1nc(SCc2cc(F)cc(C(F)(F)F)c2)nc(SCc2ccc3nc(Cl)ccc3c2)[nH]1	TOP2A (Homo sapiens, UniProt P11388)	ATPase activity		7.8 µM, added: ATP 0.025 mM		ATP hydrolysis rate	0.197 µM/min and 0.28 µM/min
COc1cc(/C=C/c2ccc(O)cc2)cc(OC)c1	O-methyltransferase (Sorghum bicolor, UniProt A0A1B6PFV1)			concentration not given, added: SAH+		ΔH of binding	-10.2 ± 0.154 kcal/mol
CCN1CCC[C@H]1CNC(=O)c1c(O)c(Cl)cc(Cl)c1OC	Adhesion G protein-coupled receptor A1 (ADGRA1, Homo sapiens, UniProt Q86SQ6)	β-arrestin recruitment, TANGO luminescence, measured: GPR123		concentration not given	relative to: basal luminescence	log2 fold change	-0.017
Nc1ncnc2c1ncn2[C@@H]1O[C@H](COP(=O)(O)OP(=O)(O)NP(=O)(O)O)[C@@H](O)[C@H]1O	Cell cycle histidine kinase CckA, CA domain (Caulobacter vibrioides, UniProt Q9X688)	isothermal titration calorimetry	Caulobacter crescentus	concentration not given, 12 °C, added: c-di-GMP 100 µM		binding enthalpy (ΔH)	-2.4 kcal/mol
Nc1ccc(C(=O)O)cc1	BEST1, with wild-type BEST1 (Homo sapiens, UniProt O76090, A243T)	whole-cell patch clamp	HEK293 co-expressing WT and A243T mutant	concentration not given, membrane potential -60 mV		current density	-14.4 pA/pF and -16 pA/pF and -5.11 pA/pF and -15.3 pA/pF and -19.3 pA/pF and -12.4 pA/pF and -3.01 pA/pF
NC(=O)c1ccc[n+]([C@@H]2O[C@H](COP(=O)([O-])OP(=O)(O)OC[C@H]3O[C@@H](n4cnc5c(NCCNC(=O)CCCCCNC(=O)CCCCCNC(=O)CCCC[C@@H]6SC[C@@H]7NC(=O)N[C@@H]76)ncnc54)[C@H](O)[C@@H]3O)[C@@H](O)[C@H]2O)c1	PARP4 (Homo sapiens, UniProt Q9UKK3)	substrate, DELFIA auto-modification				apparent Km	14 µM
Nc1ncnc2c1ncn2[C@@H]1O[C@H](COP(=O)(O)OP(=O)(O)OP(=O)(O)O)[C@@H](O)[C@H]1O	hexokinase yeast	substrate		pH 8.0, 25 °C, 1.5 mM MgCl2, added: glucose varied		Km	29.5 µM
C[C@H](CCC(C)(C)O)[C@H]1CC[C@H]2[C@@H]3CC=C4C[C@@](C)(O)CC[C@]4(C)[C@H]3CC[C@]12C	Glutamate NMDA receptor; GRIN1/GRIN2B (GRIN1/GRIN2B, Homo sapiens, UniProt Q05586+Q13224, F550A)	positive allosteric modulator, two-electrode voltage clamp	Xenopus oocytes expressing GluN2B-F550A	10 µM, 0.02% cremophor, added: 100 µM glutamate and glycine	relative to: without compound	current response	427 ± 35%
CCCCC1(CCCC)CN(c2ccccc2)c2cc(SC)c(OCC(=O)N[C@@H](C(=O)NCC(=O)O)c3ccccc3)cc2S(=O)(=O)C1	SLC10A2 (Homo sapiens, UniProt Q12908)	inhibitor, UPLC-MS	differentiated Caco-2 on transwells	1 µM, 16 h, compound pre-incubation, added: apical bile acids 100 µM		intracellular bile acid accumulation	decreased
CC(=O)N[C@@H](C)C(=O)N[C@@H](CC(N)=O)C(=O)NCC(=O)N[C@@H](CC(N)=O)C(=O)N[C@@H](C)C(=O)N[C@@H](CCC(=O)O)C(=O)N[C@@H](CC(N)=O)C(=O)N[C@@H](CCC(=O)O)C(=O)N[C@@H](CCC(=O)O)C(=O)N[C@@H](CC(N)=O)C(=O)NCC(=O)N[C@@H](CCC(=O)O)C(=O)N[C@@H](CCC(N)=O)C(=O)N[C@@H](CCC(=O)O)C(=O)N[C@@H](C)C(=O)N[C@@H](CC(=O)O)C(=O)N[C@@H](CC(N)=O)C(=O)N[C@@H](CCC(=O)O)C(=O)N[C@H](C(=O)N[C@@H](CC(=O)O)C(N)=O)C(C)C	Kelch-like ECH-associated protein 1, Kelch domain (KEAP1, Homo sapiens, UniProt Q14145)	ITC		concentration not given		binding stoichiometry	1.09
COc1cc(F)ccc1-c1ncnc(Nc2cccc(C[S@](C)(=N)=O)c2)n1	VRK2 (Homo sapiens, UniProt Q86Y07)	kinase activity		10 µM, added: 10 µM ATP		remaining activity	83%
O=C(COP(=O)(O)O)[C@@H](O)[C@H](O)[C@H](O)COP(=O)(O)O	GAPDH (Homo sapiens, UniProt P04406)	thermal proteome profiling	HepG2 cell lysate	concentration not given, 57 over 37 °C, mean	relative to: compound over control	thermal stability ratio	3.71

A few entries again:
SMILES	target or system	test	system	conditions	how to read	endpoint	value
CC1=C(/C=C/C(C)=C/C=C/C(C)=C/C=O)C(C)(C)CCC1	Rhodopsin (RHO, Bos taurus, UniProt P02699, I189V)	retinal release, Trp FRET	lipid bicelles	28 °C, I189V mutant	relative to: wild-type rhodopsin	relative koff	1.56 ± 0.02
COc1cc(O)ccc1C1CC(=O)Nc2c1c(=O)nc(SCc1ccccc1Cl)n2C (stereo not drawn)	Protein lin-28 homolog A (Mus musculus, UniProt Q8K3Y3)					Hill slope	-2.1
CC(C)(O)c1ccccc1CC[C@@H](SCC1(CC(=O)O)CC1)c1cccc(/C=C/c2ccc3ccc(Cl)cc3n2)c1	Cysteinyl leukotriene receptor 1 (Mus musculus, UniProt Q99JA4)		female MC-Cysltr2 knockout mice	intraperitoneal, 30 mg/kg		BAL fluid eosinophils	decreased
COc1c(O[C@@H]2O[C@H](CO)[C@@H](O)[C@H](O)[C@H]2O)cc2c(c1O)C(=O)c1c(cc(C)c(O)c1OC)C2=O	HK-2 co-cultured with HepaRG	MTT		16.67 µM, 24 h	relative to: untreated control	cell viability	91.2 ± 15.1%
c1coc(CNc2ncnc3nc[nH]c23)c1	Gelsolin, peptide (GSN, Homo sapiens, UniProt P06396)	amyloid aggregation, ThT fluorescence		100 µM, 12 h, 37 °C, inhibitor to peptide 1:1 molar	relative to: untreated	remaining fluorescence	48%
